Measured values gathered from unrelated publications.
Numbered parts are unrelated; each lists some results of a single study.

Study 1 — technique: RNA Bind-n-Seq; molecule type: RNA; medium: in vitro; concentration: 365 nM; relative to: no-protein control; reading: higher = stronger binding
Target: RNA binding protein fox-1 homolog 2, RRM domain, GST-SBP tag (RBFOX2, Homo sapiens, UniProt O43251-10, residues 100-194)
Setting: natural RNA segment, single round, ends assumed
Shared flanks, not repeated: GGGAGUUCUACAGUCCGACGAUC … UGGAAUUCUCGGGUGCCAA
Residues (chain): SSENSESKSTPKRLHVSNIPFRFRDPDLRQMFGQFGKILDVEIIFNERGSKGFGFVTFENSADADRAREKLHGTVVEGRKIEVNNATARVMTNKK
Strand | RBNS enrichment (R)
AGUUUCAGUGAGUCCCAGGGACUAAUUAAGGUUUAUUUUAAAAAGUGUCUACCUUGGUACGCAGCCACCUCCUGCAUGCUGUGCAUGUUAUUGGGACUUGUAUUAUAGGU | 2.44
UUGGGAAAGGAAAGCCCAGAUUUGAAUGGGUCUUUCCCCUGGGCCUUAUCCUAUAGAGGCAUUUGUAAUAUGGAGAAAAUAAUUUUUCAUUUUUGCUCAUUUAAUUCUAU | 0.35
ACAUGAUCCACCGUUUUAACACCUCAGUCUUUGGUAGGAUGAAAUAAUAAAUGAAGAUGCCUAAAAUAGUGUUCCAAACUUUCAUGGUCAUUUUCAUUUUUACUGAAACA | 0.26
ACCGGCUCACUGUCUGCAGCACCUUCUCUUUCUUUCUCAUGCAUUUCAAAGCCAGCUAUCUCCUGCACUAGCUGUCUGUGGCCUGUAGAACAAGCUUUUUUCACCAAGCU | 0.975
AGGAAACAGCCCAUGGGGUUCAGCUCUGCAUCCUCCUCUUUAAGUGAAUUAAAGUGGUUUUCCCAGAGGGAAAGGUGUCAUGCUUGAGGGAACAAUGUCCUAGGCUGGGU | 0.407
CCAAAUGCCUCCUGCUUCUCGUUAUAGGACUGAGUGAGGUCCUCAUAGCUCUGUGCUCUGGGCAGCUCUGAGCUCUCAGCCCUGUUGCUUUCAAUGUCAGUCACAGAGUG | 0.404

Study 2 — technique: protein-binding microarray; molecule type: double-stranded DNA, one strand shown; medium: in vitro; concentration: 0.8 µM; setting: whole 60-bp probe, no competitor; reading: higher = stronger binding; shared flanks, not repeated: … GTCTTGATTCGCTTGACGCTGCTG
Target: Centromere-binding protein 1, full length, N-terminal tag (CBF1, Saccharomyces cerevisiae, UniProt P17106, residues 1-351)
Sequence of UniProt P17106 (whole entry, looked up): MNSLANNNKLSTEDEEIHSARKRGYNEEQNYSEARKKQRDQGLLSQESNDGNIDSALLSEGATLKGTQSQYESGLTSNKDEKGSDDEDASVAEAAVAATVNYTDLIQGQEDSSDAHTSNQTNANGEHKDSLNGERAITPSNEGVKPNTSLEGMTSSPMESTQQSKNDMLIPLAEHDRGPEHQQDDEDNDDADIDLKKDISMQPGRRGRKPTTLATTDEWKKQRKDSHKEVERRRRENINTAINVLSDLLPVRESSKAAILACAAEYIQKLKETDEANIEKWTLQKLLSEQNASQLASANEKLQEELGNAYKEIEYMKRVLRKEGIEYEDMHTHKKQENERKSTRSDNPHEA
Strand | fluorescence intensity [a.u.]
CCTAACTACTATAGTCAGGTGGAATAGCTTCGTACA | 731
GAAACATATAAAACACACGATGATTGATTGATTTAG | 508
GAACCTAGTGTCGGCCACCTGATAAAGGTTTTTTAG | 657
CTAGCGCCTTTGTATGACGTGAAGCGATCCGCCTTC | 521
CTATAGTTTAGTTATGGCGTGACATAATAACGGTTC | 1430
GAAAAATATCATTTTCATAAGTCACATGATAAATAG | 8540
GAAGATGGTATTTAACACATGAAAATCTTCATATAG | 533

Study 3 — technique: RNA Bind-n-Seq; molecule type: RNA; medium: in vitro; concentration: 20 nM; setting: 6-mer, flanks averaged, single round; together with: 150 mM LiCl; relative to: input library; reading: higher = stronger binding
Target: TAR DNA-binding protein 43, full length, His tag (TARDBP, Homo sapiens, UniProt Q13148, residues 1-414)
Strand | 6-mer enrichment (R)
GGAGGC | 1.11
CCUCCU | 1.02
AUGCUU | 0.992
AACGCC | 0.837
GUUCGC | 0.909
AGUAGG | 1.04

Single results of other studies
Substance | target | test | system | conditions | scale | quantity | value
PhoQ, residues 284 288 289 292 302 303 NLALSC | PhoP, residues 12 14 15 18 19 TPWLV (Escherichia coli, UniProt P23836) | Sort-seq, measured: YFP reporter | E. coli | PhoQ-PhoP variant library, together with: 10 µM Mg2+ | relative to: high Mg2+ state, higher = stronger signaling | fold induction | 4.64
